Measured values from different studies.
Numbers after ± are the reported error. Converted amounts (≈) assume the structure as drawn.

Compound	assay	test system	conditions	scale	measurement	result
O=c1c2ccccc2[se]n1CCCCCCn1[se]c2ccccc2c1=O		DMSO	24 h, 25 °C		solubility	20 to 50 mg/mL (≈ 41.8 to 105 mM)
CC(C)c1cnc(-c2cc(Cl)ccc2F)cc1Nc1ccncc1C(=O)NC(CO)CO	item: pyrexia	human patients	oral, dose not given, grade 2		patients with related SAE	2.4%
C=CC(=O)Nc1cc(Nc2nccc(-c3cn(C)c4ccccc34)n2)c(OCC(F)(F)F)nc1NC	LC-MS	human liver microsomes	3 µM, 60 min, with: sulfaphenazole 6 µM	reference: no inhibitor	remaining parent compound	62%
CC[N+]1=C(C=CC=CC=C2N(CCCCCC(=O)O)c3ccc4c(S(=O)(=O)[O-])cc(S(=O)(=O)[O-])cc4c3C2(C)C)C(C)(C)c2c1ccc1c(S(=O)(=O)[O-])cc(S(=O)(=O)[O-])cc21.[K+].[K+].[K+]		100% serum	pH 7.4		absorbance maximum	682 nm
COC(=O)c1ccc(-c2cn(Cc3cc(Cl)ccc3O[11CH3])nn2)cc1	PET, one-tissue compartment model	rhesus monkey, brain WB	dose not given		distribution volume	0.47 mL/cm³
CC(C)(Sc1cc[n+]([O-])cc1-c1ccc(C#N)c2ccccc12)C(=O)OC1OC(C(=O)O)C(O)C(O)C1O (stereo not drawn)		adult men, plasma	oral, 15 mg verinurad, mild renal impairment	reference: normal renal function	AUC(0-inf) increase	36%
CCCN1C(=O)CCc2cc(NS(=O)(=O)Cc3ccc(C)cc3)ccc21	LC-MS		mild UV light	reference: ABA	half-life relative to ABA	~7 fold
Cn1c(=O)oc2ccc(-c3ccc(CC(C#N)NC(=O)C4CNCCCO4)c(F)c3)cc21 (stereo not drawn)	item: monocyte count increased	human	15 mg single dose, fasted		subjects with TEAE	0%
CN(Cc1ccc(F)cc1)Cc1cc(=O)oc2cc(O)ccc12		HepG2 cell medium	0.5 mM, 15 min		remaining intact compound	> 99%
Cc1cc(C)c(-c2ccc(NC(=O)[C@H](Cc3ccc(C(=O)NCCS(=O)(=O)O)cc3)c3ccc(-c4ccc(C(C)(C)C)cc4)cc3)cc2)c(C)c1		mouse, HFD-induced obese	oral, 50 mg/kg once daily, 6 weeks		daily food intake	no effect
CCCC[C@@H]1NC(=O)[C@@H](NC(=O)[C@H](CCC(=O)O)NC(=O)CNC(=O)CN2CCN(CC(=O)O)CCN(CC(=O)O)CCN(CC(=O)O)CC2)CCCCNC(=O)C[C@@H](C(N)=O)NC(=O)[C@H](C(C)C)NC(=O)[C@@H]2CCCN2C(=O)[C@H](CCCNC(=N)N)NC(=O)CNC(=O)[C@H](Cc2c[nH]c3ccccc23)NC(=O)[C@H](CCCNC(=N)N)NC(=O)[C@@H](Cc2ccccc2)NC(=O)[C@H](Cc2c[nH]cn2)NC(=O)[C@H](CCC(=O)O)NC1=O [gallium-67 labelled]		C57 mice with B16/F1 melanoma	intravenous, 0.037 MBq/mouse, 24 h	reference: tumour over liver	tumour to liver ratio	20.9
N=C(N)NCCC[C@@H]1NC(=O)[C@H](Cc2c[nH]c3ccccc23)NC(=O)[C@@H](CC2CCCCC2)NC(=O)[C@@H]2CCCN2C(=O)[C@@H](NC(=O)CCc2ccccc2)CCCNC1=O		C57BL/6J mice, brain	intraperitoneal, 1 mg/kg		Cmax	156 ng/g
CSc1cc(C)nc(SC)c1NC(=O)CN1CCN(CCSc2nc3ccccc3[nH]2)CC1.Cl		female Crl:CD1 (ICR) mice, olfactory bulb	intranasal, 10 µL solution daily, 120 min, 7 days dosing		tissue concentration	0 ng/g
CC[C@H](C)[C@H](NC(=O)[C@H](Cc1ccccc1)NC(=O)[C@H](CC(=O)O)NC(=O)[C@H](CCCNC(=N)N)NC(=O)[C@H](Cc1ccccc1)NC(=O)[C@H](Cc1ccccc1)NC(=O)[C@H](CCN)NC(=O)[C@H](CO)NC(=O)[C@H](CC(C)C)NC(=O)[C@H](CCCNC(=N)N)NC(=O)[C@H](CCSC)NC(=O)[C@H](C)N)C(=O)N[C@@H](CCCN)C(=O)N[C@@H](CCC(N)=O)C(=O)N[C@@H](CCCNC(=N)N)C(=O)N[C@@H](CCCCN)C(=O)N[C@@H](CCCCN)C(=O)O	circular dichroism	20% TFE in PBS	200 µM, pH 7.4, 25 °C		helicity	16.9%
CCCCCCCCCCCCCCCC(=O)N[C@@H](CCCCN)C(=O)N[C@@H](CCCCN)C(=O)N[C@@H](CO)C(=O)N[C@@H](CCCNC(=N)N)C(=O)N[C@@H](C)C(=O)N[C@@H](CC(C)C)C(=O)N[C@@H](Cc1ccccc1)C(N)=O		cynomolgus monkey, male	30 mg/kg, day 5		prothrombin time	12.5 ± 0.6 s
CCCn1c2ccc([N+](=O)[O-])cc2c(=O)n1Cc1ccccc1	resazurin	peritoneal macrophages, BALB/c mice	48 h, 10% FBS		CC50	4.7 ± 1.7 µM
Cc1ccc(N(CCc2nnc(S)o2)S(=O)(=O)c2ccc(C)cc2)cc1		rat	100 mg/kg		ulcer index	40
Cc1cc2c(c(=O)o1)C=C1CCC(C(C)CNCc3ccc(O)cc3)CC1O2 (stereo not drawn)	western blot, item: Triton X-100-soluble Aβ monomer	5xFAD mice, brain	ip, 25 mg/kg daily, six weeks		Aβ monomer level	decreased
CONC(=O)/C=C/c1cccc(S(=O)(=O)Nc2ccccc2)c1		patients with mild liver dysfunction, plasma	intravenous, 400 mg/m^2 belinostat, single 30 min infusion, cycle 1 day -7, mean		AUC(0-inf)	8050 ng·h/mL
NC12CNCCNCC(NCc3ccc(CNC(=O)CCCC(=O)NCc4ccc(-c5nncnn5)cc4)cc3)(CNCCNC1)CNCCNC2.[64Cu+2]	OLINDA dosimetry	spleen	48 h pretargeting interval, with: huA33-TCO pretargeting		mean absorbed dose	0.0119 rad/mCi
CCCCCCCCN(CCC(=O)Nc1ccccc1)C(=O)c1ccccn1	chemical stability	mouse, serum	500 µM		half-life	0.483 h
CCCC1OC2CC3C4CCC5=CC(=O)C=CC5(C)C4C(O)CC3(C)C2(C(=O)COC(=O)C(C)N)O1 (stereo not drawn)		rat lung homogenate	200 µg/mL, 12 h		hydrolysed conjugate	53.9%
Cc1ccc(OCC(=O)N(Cc2cccs2)c2ccn[nH]2)cc1		male Sprague-Dawley rat, plasma	oral, 30 mg/kg, single dose		Cmax	6.22 ng/mL
CC(=O)N[C@H](CCNC(=O)c1cc(NC(=O)c2cc(NC(=O)c3cc(NC(=O)c4nccn4C)cn3C)cn2C)cn1C)C(=O)Nc1cn(C)c(C(=O)Nc2cc(C(=O)Nc3cc(C(=O)Nc4cc(C(=O)NCCCN(C)CCCN[14C](=O)c5cccc([14C](=O)O)c5)n(C)c4)n(C)c3)n(C)c2)n1		NSG male mice, A549 xenograft without Matrigel, liver	intraperitoneal, 20 nmol per animal		tissue concentration	0.55 mg/kg
O=C1C2=C(CCN(Cc3ccccc3)C2)N2CCN=C2N1Cc1ccc(C(F)(F)F)cc1		female CD-1 mouse, plasma	oral, 50 mg/kg		MRT	3.26 h
CN1CCC[C@]1(C)/C=C/S(=O)(=O)NC(=O)Nc1c2c(cc3c1CCC3)CCC2		human, urine	oral, 250 mg single dose		amount recovered in urine	173 mg
O=C(CCc1ccc(CNC(C(=O)OC2CCCC2)C2CCCCC2)cn1)NO (stereo not drawn)		human	oral, 60 mg, single dose, geometric mean		Vz/F	176 L

For quick reference, copied from above:
Compound	assay	test system	conditions	scale	measurement	result
C=CC(=O)Nc1cc(Nc2nccc(-c3cn(C)c4ccccc34)n2)c(OCC(F)(F)F)nc1NC	LC-MS	human liver microsomes	3 µM, 60 min, with: sulfaphenazole 6 µM	reference: no inhibitor	remaining parent compound	62%
CC[N+]1=C(C=CC=CC=C2N(CCCCCC(=O)O)c3ccc4c(S(=O)(=O)[O-])cc(S(=O)(=O)[O-])cc4c3C2(C)C)C(C)(C)c2c1ccc1c(S(=O)(=O)[O-])cc(S(=O)(=O)[O-])cc21.[K+].[K+].[K+]		100% serum	pH 7.4		absorbance maximum	682 nm
COC(=O)c1ccc(-c2cn(Cc3cc(Cl)ccc3O[11CH3])nn2)cc1	PET, one-tissue compartment model	rhesus monkey, brain WB	dose not given		distribution volume	0.47 mL/cm³
CC(C)(Sc1cc[n+]([O-])cc1-c1ccc(C#N)c2ccccc12)C(=O)OC1OC(C(=O)O)C(O)C(O)C1O (stereo not drawn)		adult men, plasma	oral, 15 mg verinurad, mild renal impairment	reference: normal renal function	AUC(0-inf) increase	36%
